Published values from different studies.
Every numbered part comes from another study and shows a few of its results, in no order. Changes are numbered by the printed parent chain.

Series 1 — method: aptamer microarray, sandwich; molecule type: DNA with 2'F-ANA; matrix: in vitro; tested at: 200 nM; with: Cy3 exosite-II aptamer, 400 nM; reading: higher = stronger binding; oligonucleotide: GGTTGGTGTGGTTGG
Target: Prothrombin, mature alpha-thrombin (F2, Homo sapiens, UniProt P00734)
Notes: whole 15-mer aptamer, many near background
| Modification | mean fluorescence intensity [a.u.] |
| --- | --- |
| 2'F-ANA at 1 2 4 6 7 10 11 14 | 51.2 |
| 2'F-ANA at 1 2 3 4 8 14 | 69.4 |
| 2'F-ANA at 3 6 8 9 10 11 12 15 | 440 |
| 2'F-ANA at 1 2 5 9 11 14 15 | 52.4 |
| 2'F-ANA at 2 4 6 8 10 12 15 | 116 |
| 2'F-ANA at 4 5 6 8 9 10 13 | 46.6 |

Series 2 — method: universal PBM; molecule type: double-stranded DNA, one strand shown; matrix: in vitro; tested at: 600 nM; reading: higher = stronger binding
Target: Sal-like protein 4, full length isoform A (SALL4, Homo sapiens, UniProt Q9UJQ4, residues 1-1053)
Chain of UniProt Q9UJQ4 (whole entry, looked up): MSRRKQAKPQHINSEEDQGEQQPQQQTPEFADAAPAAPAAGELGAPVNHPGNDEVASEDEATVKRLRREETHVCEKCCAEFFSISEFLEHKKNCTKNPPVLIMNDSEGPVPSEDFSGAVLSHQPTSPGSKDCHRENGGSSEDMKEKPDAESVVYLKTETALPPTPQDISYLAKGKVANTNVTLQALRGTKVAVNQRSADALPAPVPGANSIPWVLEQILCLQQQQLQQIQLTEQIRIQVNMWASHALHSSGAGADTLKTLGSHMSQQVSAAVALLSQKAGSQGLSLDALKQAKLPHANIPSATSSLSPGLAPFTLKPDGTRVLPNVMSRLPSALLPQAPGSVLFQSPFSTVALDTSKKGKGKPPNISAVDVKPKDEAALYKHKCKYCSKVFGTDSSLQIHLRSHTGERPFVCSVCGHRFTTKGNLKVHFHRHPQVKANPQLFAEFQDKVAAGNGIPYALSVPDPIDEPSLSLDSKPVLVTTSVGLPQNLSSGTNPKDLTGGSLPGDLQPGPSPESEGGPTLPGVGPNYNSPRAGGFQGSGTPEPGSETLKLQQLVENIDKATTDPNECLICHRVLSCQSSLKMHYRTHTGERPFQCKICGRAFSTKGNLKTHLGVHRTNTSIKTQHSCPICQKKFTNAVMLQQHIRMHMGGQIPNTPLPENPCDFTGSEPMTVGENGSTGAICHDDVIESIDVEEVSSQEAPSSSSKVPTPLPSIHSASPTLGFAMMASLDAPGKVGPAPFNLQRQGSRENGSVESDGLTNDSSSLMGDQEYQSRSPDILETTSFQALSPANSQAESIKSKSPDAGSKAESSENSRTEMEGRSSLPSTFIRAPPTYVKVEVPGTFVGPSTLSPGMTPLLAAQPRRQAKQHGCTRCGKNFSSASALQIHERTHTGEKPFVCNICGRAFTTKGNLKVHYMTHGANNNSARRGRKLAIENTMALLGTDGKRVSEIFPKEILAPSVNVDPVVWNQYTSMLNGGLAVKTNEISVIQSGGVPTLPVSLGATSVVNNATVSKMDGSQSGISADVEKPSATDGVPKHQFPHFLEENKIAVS
Notes: 8-mer, flanks averaged, mean of replicates
| Oligonucleotide | E-score |
| --- | --- |
| GCTAGTAC | -0.067 |
| ACGGAGGA | -0.124 |
| CTGAGTGC | -0.196 |
| AGGGGAAG | -0.256 |
| GCTCGGCA | -0.145 |

Series 3 — target: CCNA1, cyclin fold, Cln2 fusion (human); method: yeast growth competition, sequencing; matrix: yeast; notes: weak parent motif; baseline: not given; reading: higher = stronger binding
Starting sequence: PKMYT1 docking peptide (human); SFEPRNLLSLFED; partner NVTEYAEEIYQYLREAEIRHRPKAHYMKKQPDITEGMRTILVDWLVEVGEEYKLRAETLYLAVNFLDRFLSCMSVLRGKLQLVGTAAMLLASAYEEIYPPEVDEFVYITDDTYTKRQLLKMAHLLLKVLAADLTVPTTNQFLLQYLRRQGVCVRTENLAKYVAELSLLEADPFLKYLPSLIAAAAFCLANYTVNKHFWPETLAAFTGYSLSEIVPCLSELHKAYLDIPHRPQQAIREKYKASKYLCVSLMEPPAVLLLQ
| Substitution | normalised enrichment score |
| --- | --- |
| L7V | 0.14 |
| L7R | 0.111 |
| F11G | 0.0412 |
| S9H | 0.227 |

Single results of other studies
| Substance | target | test | test system | conditions | how to read | measurement | value |
| --- | --- | --- | --- | --- | --- | --- | --- |
| PhoQ, residues 284 288 289 292 302 303 SACGEM | PhoP, residues 12 14 15 18 19 AGCRL (Escherichia coli, UniProt P23836) | Sort-seq, item: YFP reporter | E. coli | PhoQ-PhoP variant library, with: 10 µM Mg2+ | baseline: high Mg2+ state, higher = stronger signaling | fold induction | 7.31 |

A few entries again (series 1):
| Modification | mean fluorescence intensity [a.u.] |
| --- | --- |
| 2'F-ANA at 1 2 4 6 7 10 11 14 | 51.2 |
